Experimental data of several laboratories.
± gives the spread as reported.

| SMILES | cell line | assay | conditions | IC50 [µM] |
| --- | --- | --- | --- | --- |
| N#Cc1cccc(-c2ccc(=O)n(Cc3cccc(-c4ncc(OCC5CCN(CCC(=O)Nc6cccc7c6C(=O)N(C6CCC(=O)NC6=O)C7=O)CC5)cn4)c3)n2)c1 (stereo not shown) | Hs746T | cell growth or viability, CCK-8 | 72 h | 0.0756 |
| O=c1[nH]c(=O)n([C@@H]2O[C@H](CSSc3ccccn3)[C@@H](O)[C@H](F)[C@H]2O)cc1F | FM3A | cell growth or viability | – | 35 |
| CC(C)=CCC1=C([O-])C(=O)c2ccccc2C1=O.CC(C)=CCC1=C([O-])C(=O)c2ccccc2C1=O.[Cu+2].c1ccc(-c2ccnc3c2ccc2c(-c4ccccc4)ccnc23)cc1 | HOS | cell viability, MTT | 24 h | 1.4 ± 0.4 |
| Cc1cc(/C=C/C#N)cc(C)c1Oc1cc(Nc2ccc(C#N)cn2)nc2ccncc12 | H69AR (multidrug resistant) | – | 48 h | > 120 |
| COc1ccc(C[C@H]2COC(=O)[C@@H]2Cc2ccc(OCCCCCCCCCC(=O)NO)c(OC)c2)cc1OC | KU812 | cell growth or viability, CCK-8 | 48 h | > 5 |
| CCCC(CCC)C(=O)[O][Pt]([NH2])([NH2])([Cl])([Cl])[O]C(=O)C(C)c1ccc(CC(C)C)cc1 (stereo not shown) | six human cancer lines | cytotoxicity, MTT | – | 1.29 |
| Cn1[c]([Ir-3]234([NH3+])[n]5c6ccc5C(c5c(F)c(F)c(F)c(F)c5F)=C5C=CC(=[N+]52)C(c2c(F)c(F)c(F)c(F)c2F)=c2ccc([n]23)=C(c2c(F)c(F)c(F)c(F)c2F)C2=[N+]4C(=C6c3c(F)c(F)c(F)c(F)c3F)C=C2)[n+](C)c2ccccc21.F[P-](F)(F)(F)(F)F | HCC827 | cell growth or viability, MTT | 72 h | 0.55 |
| C#CCOc1cc(C(=O)C2=C(C)C(=O)c3ccccc3C2=O)ccc1C(F)(F)F | MRC-5 | cytotoxicity | – | 29.4 |
| C[N+]1(C)CC[NH2+][Pt-2]1([OH])([Cl])([Cl])[O]C(=O)CCC(=O)OCCOC(=O)CCC(=O)[O][Pt-2]1([OH])([Cl])([Cl])[NH2+]CC[N+]1(C)C | SW1573 | cell growth or viability | 96 h | 144 |
| COC(=O)[C@@H]1[C@@H](OC)[C@H](OC(=O)c2cc(OC)c(OC)c(OC)c2)C[C@@H]2CN3CC[C@]4(O[C@@H]3C(=O)[C@@H]21)C(=O)Nc1cc(OC)c(-c2ccc(C(F)(F)F)cc2)cc14 | SUP-T1 | cell growth or viability, trypan blue | 72 h | 1.62 |
| CCOC(=O)C1=C(C)NC(=O)N[C@@H]1/C=C/c1ccc(OC)cc1 | FR2 | cell growth or viability, MTT | 24 h | > 70 |
| CC(C)(C)ONc1nc(Nc2ccnc(C(F)(F)F)c2)nc(-c2cccc(C(F)(F)F)n2)n1 | TF-1 IDH2 R140Q | – | 72 h | 0.0099 ± 0.0028 |
| N#Cc1cccc(-c2ccc(=O)n(Cc3cccc(-c4ncc(OCC5CCN(CC(=O)N6CCN(CCNc7ccc8c(c7)C(=O)N(C7CCC(=O)NC7=O)C8=O)CC6)CC5)cn4)c3)n2)c1 (stereo not shown) | Hs746T | cell growth or viability, CCK-8 | 72 h | 0.00388 |
| O=[N+]([O-])[O-].O=[N+]([O-])[O-].[Cu+2].[Cu+2].c1ccc(-c2nc(-c3ccc4c(c3)OCO4)n[n-]2)nc1.c1ccc(-c2nc(-c3ccc4c(c3)OCO4)n[n-]2)nc1 | T24 | cell growth or viability, MTT | 24 h | 3.53 |
| Nc1ccn([C@@H]2O[C@H](CO)[C@@H](O)[C@@H]2O)c(=O)n1 | LO2 cells | viability, MTT | 24 h | 430 ± 40 |
| CN(C)CCCS(=O)(=O)NC12CCCC(C)(CCC3C1CC3(C)C)C2 (stereo not shown) | NCM460 | cell growth or viability, CCK-8 | 72 h | 22.7 |
| Cc1cc([C@H](C(=O)N2C[C@H](O)C[C@H]2C(=O)N[C@@H](CC(=O)N2CCC(N3CCC(C#Cc4ccc(C(=O)N[C@H]5C(C)(C)[C@H](Oc6ccc(C#N)c(Cl)c6)C5(C)C)cc4)CC3)CC2)c2ccc(-c3scnc3C)cc2)C(C)C)on1 | HCC1428 | cell growth or viability | 7 days | 0.121 |
| CCN(CC)CCN1C(=O)c2ccc3c4cccc5cccc(c6ccc(c2c36)C1=O)c54 | A549, PC-3, HL-60 | cytotoxicity, SRB | 72 h, range over three lines | 3.1 to 7.4 |
| CC(=O)Nc1ccc(/C=C/c2nc3ccc(Br)cc3nc2/C=C/c2ccc(NC(C)=O)cc2)cc1 | Hs68 | cell growth or viability, MTT | – | 9.29 |
| Cc1cnc2c(ccc3c(C)c(C)cnc32)c1C.O=C([O-])Cc1ccccc1Nc1c(Cl)cccc1Cl.O=C([O-])Cc1ccccc1Nc1c(Cl)cccc1Cl.[Mn+2] | HMLER-shEcad | mammosphere viability, resazurin | – | 3 ± 0.1 |
| O=C(Nc1ncnc2c1ncn2[C@@H]1O[C@H](CO)[C@@H](O)[C@H](F)[C@H]1O)c1ccccc1 | FM3A | cell growth or viability | – | > 200 |
| O=C([O][Ti+2][O]C(=O)c1ccc([P+]([Au-][Cl])(c2ccccc2)c2ccccc2)cc1)c1ccc([P+]([Au-][Cl])(c2ccccc2)c2ccccc2)cc1.c1cc[cH-]c1.c1cc[cH-]c1 | UO-31 | cell viability, XTT | 72 h | 0.3 |
| CCCCSc1nc(N)c2c(F)c(C#N)c(F)c(Cl)c2n1 | SGC-7901 | cell growth or viability, MTT | 96 h | 30.4 |
| C=C(C)[C@@H]1CC[C@]2(C(=O)O)CC[C@]3(C)[C@H](CC[C@@H]4[C@@]5(C)CC[C@H](O[C@@H]6O[C@@H](C)[C@H](O)[C@@H](O)[C@H]6OC)C(C)(C)[C@@H]5CC[C@]43C)[C@@H]12 | human Skin fibroblast | cell growth or viability | 48 h | 22 |
| CC/C(=C(\c1ccc(O)cc1)c1ccc(OCCN(C)CCOCCOCCOCCOCCOCCOCCOCCOCCOCCN(C)CCOc2ccc(/C(=C(/CC)c3ccccc3)c3ccc(O)cc3)cc2)cc1)c1ccccc1 | MDA-MB-231 (ER-negative) | cell growth | 96 h | 14 |
| COC1CCC(Nc2nc(-c3nccn3C)nc3sc(-c4ccn(C)n4)c(-c4ccccc4)c23)C1 (stereo not shown) | PANC-1 (KRAS G12D) | Western blot, item: phospho-Akt | 6 h, with: EGF 15 min | ~7 |

| SMILES | cell line | assay | conditions | IC50 [µM] |
| --- | --- | --- | --- | --- |
| CC1(N)CCN(c2nc(N(Cc3ccccc3)Cc3ccccc3)nc3c2ncn3Cc2ccccc2)CC1 | AGS | cell growth or viability, WST-1 | 72 h | 3.5 |
| CN1CCCNC(=O)CCC(=O)NCCCN(C)CCCNc2cccc3c2C(=O)c2cccc(c2C3=O)NCCC1 | ASF-4-4L2 | cell proliferation, CCK-8 | 48 h | 8.2 |
| C=C1CC[C@@H]2O[C@@]2(C)CC[C@H]2[C@H]1C[C@]2(C)C(=O)/C=C/C(C)(O)COC(C)=O (stereo partly shown) | KPC | cell viability, CCK-8 | 72 h | 7.67 ± 0.39 |
| O=C(/C=C/c1ccc2c(c1)C(=O)N(CCCc1ccccc1)CC2)NO | T24 | cell growth, SRB | 72 h | 4.01 ± 0.9 |
| CC/C(=C(\c1ccc(O)cc1)c1ccc(OCCN(C)CCOCCOCCOCCOCCOCCOCCOCCN(C)CCOc2ccc(/C(=C(/CC)c3ccccc3)c3ccc(O)cc3)cc2)cc1)c1ccccc1 | MDA-MB-231 (ER-negative) | cell growth | 96 h | 0.69 |
| COc1ccc(-c2cc(=O)c3c(O)cc(O[C@@H]4O[C@H](CO)[C@@H](O)[C@H](O)[C@H]4O)cc3o2)cc1OC | U87MG.ΔEGFR glioblastoma | cytotoxicity, resazurin reduction | 72 h | 27.3 ± 3 |
| CC(=O)Oc1c2c(c3ccc4c(c3c1OC(C)=O)C=CC(=O)C4(C)C)OC[C@@H]2C | mouse Neutrophil | cell growth or viability, CCK-8 | 24 h | 7.16 |
| N=C(N)Nc1nc2ccccc2s1 | BPH-1 | cell growth or viability, MTT | 24 h | > 500 |
| O=C(NO)c1ccc(Cn2sc3ccccc3c2=O)cc1 | U-266 | cell growth or viability, ATP luminescence | 72 h | 14.5 |
| Cc1cc(C#N)cc(C)c1Oc1cc(Nc2ccc(C#N)cc2)nc2ccncc12 | H69AR (multidrug resistant) | – | 48 h | > 128 |
| N#Cc1cccc(-c2ccc(=O)n(Cc3cccc(-c4ncc(OCC5CCN(CCCCC(=O)Nc6ccc7c(c6)C(=O)N(C6CCC(=O)NC6=O)C7=O)CC5)cn4)c3)n2)c1 (stereo not shown) | Hs746T | cell growth or viability, CCK-8 | 72 h | 0.00721 |
| OC[C@H]1[C@@H](O)[C@@H](O)CN1Cc1ccc(Br)cc1 | HCT116 p53-/- | MTS | 72 h | > 200 |
| CC(=O)O[C@H]1CC[C@]2(C)[C@H]3CC=C4[C@@H]5[C@@H](C)[C@H](C)CC[C@]5(C(=O)O)CC[C@@]4(C)[C@]3(C)CC[C@H]2C1(C)C | HELF | cell growth or viability, MTT | 24 h | 54.5 |
| CCC1=C(CC)C2=[N+]3C1=Cc1c(CC)c(CC)c4[n]1[Ir-3]31([c]3n(C(C)C)cc[n+]3C(C)C)([c]3n(C(C)C)cc[n+]3C(C)C)[n]3c(c(CC)c(CC)c3=CC3=[N+]1C(=C4)C(CC)=C3CC)=C2.F[P-](F)(F)(F)(F)F | HCC827 | cell growth or viability, MTT | 72 h | 0.69 |
| C=CC(=O)N1C[C@H](C)N(c2nc(OC[C@@]34CCCN3C[C@H](F)C4)nc3c(F)c(-c4ccc(F)c5sc(N)c(C#N)c45)c(C(F)(F)F)cc23)C[C@H]1C | A-375 (BRAF V600E) | 3D cell viability | 7 days | > 10 |
| N#Cc1c(F)c(Cl)c2nc(SCc3ccc4ccccc4c3)nc(N)c2c1F | SGC-7901 | cell growth or viability, MTT | 96 h | 6.55 |
| CC12CCCC(NS(=O)(=O)C3CCN(Cc4ccccc4)C3)(C1)C1CC(C)(C)C1CC2 (stereo not shown) | NCM460 | cell growth or viability, CCK-8 | 72 h | 43.7 |
| CC1CCC(NC(=O)N(C)c2cnc3ccc(-c4ccc(OCCCCCC(=O)NO)nc4)cc3n2)CC1 (stereo not shown) | NTERA-2-cl-D1 | cell growth or viability, MTT | 48 h | 0.12 |
| Cc1cn([C@@H]2O[C@H](CSSC[C@H]3O[C@@H](n4cc(C)c(=O)[nH]c4=O)[C@H](O)[C@@H](F)[C@@H]3O)[C@@H](O)[C@H](F)[C@H]2O)c(=O)[nH]c1=O | FM3A | cell growth or viability | – | > 500 |
| N#Cc1c(-c2ccc(Cl)cc2)cc(-c2cccc3ccccc23)n2c(Cc3ccccc3)nnc12 | U-937 | cell growth or viability, MTT | 72 h | 1.86 |
| COC(=O)c1ccc(-n2nc(C(F)(F)F)cc2-c2cc(OC)c(OC)c(OC)c2)cc1 | EMT6/AR1 multidrug-resistant | cell proliferation, sulforhodamine B | – | 14.7 ± 0.3 |
| N[C@@H](CCC(=O)N[C@@H](CS[Se]Cc1ccc(-c2cc(C(F)(F)F)nn2-c2ccc(S(N)(=O)=O)cc2)cc1)C(=O)NCC(=O)O)C(=O)O | FF2441 human fibroblasts | cell viability, MTS | 48 h | 75.5 ± 5.6 |
| N.N.O=C(CCCc1ccccc1)[O][Pt]([Cl])([Cl])[O]C(=O)CCCc1ccccc1 | seven cancer cell lines | cytotoxicity | mean over panel | 0.26 |
| O=C(O)/C(Cc1ccccc1[N+](=O)[O-])=N/Nc1nc2c(s1)CS(=O)(=O)c1c-2ccc(Cl)c1Cl | CRL-2351 | cell growth, sulforhodamine B | 5 days | > 20 |
| CC(C)c1cccc(C(C)C)c1-n1c2c([n+](-c3c(C(C)C)cccc3C(C)C)[c]1[Cu-][Cl])-c1cccc3cccc-2c13 | CHO | cell growth or viability, MTT | 72 h | 1.5 |
| CCC(C)C1OC(=O)C(C)(C)C(O)C(Cc2ccccc2)OC(=O)C(C(C)C)OC(=O)C(NC(=O)c2cccc(O)c2)C(C)OC1=O (stereo not shown) | NCM460 | cell viability, CCK-8 | 72 h | > 50 |

Repeated from above:
| SMILES | cell line | assay | conditions | IC50 [µM] |
| --- | --- | --- | --- | --- |
| CC(C)(C)ONc1nc(Nc2ccnc(C(F)(F)F)c2)nc(-c2cccc(C(F)(F)F)n2)n1 | TF-1 IDH2 R140Q | – | 72 h | 0.0099 ± 0.0028 |
| O=C(Nc1ncnc2c1ncn2[C@@H]1O[C@H](CO)[C@@H](O)[C@H](F)[C@H]1O)c1ccccc1 | FM3A | cell growth or viability | – | > 200 |
| CCC1=C(CC)C2=[N+]3C1=Cc1c(CC)c(CC)c4[n]1[Ir-3]31([c]3n(C(C)C)cc[n+]3C(C)C)([c]3n(C(C)C)cc[n+]3C(C)C)[n]3c(c(CC)c(CC)c3=CC3=[N+]1C(=C4)C(CC)=C3CC)=C2.F[P-](F)(F)(F)(F)F | HCC827 | cell growth or viability, MTT | 72 h | 0.69 |
